{"sequences": {"note": "Chains of the proteins cited; added tags and fusions are not shown.", "UniProt P31652, whole entry": "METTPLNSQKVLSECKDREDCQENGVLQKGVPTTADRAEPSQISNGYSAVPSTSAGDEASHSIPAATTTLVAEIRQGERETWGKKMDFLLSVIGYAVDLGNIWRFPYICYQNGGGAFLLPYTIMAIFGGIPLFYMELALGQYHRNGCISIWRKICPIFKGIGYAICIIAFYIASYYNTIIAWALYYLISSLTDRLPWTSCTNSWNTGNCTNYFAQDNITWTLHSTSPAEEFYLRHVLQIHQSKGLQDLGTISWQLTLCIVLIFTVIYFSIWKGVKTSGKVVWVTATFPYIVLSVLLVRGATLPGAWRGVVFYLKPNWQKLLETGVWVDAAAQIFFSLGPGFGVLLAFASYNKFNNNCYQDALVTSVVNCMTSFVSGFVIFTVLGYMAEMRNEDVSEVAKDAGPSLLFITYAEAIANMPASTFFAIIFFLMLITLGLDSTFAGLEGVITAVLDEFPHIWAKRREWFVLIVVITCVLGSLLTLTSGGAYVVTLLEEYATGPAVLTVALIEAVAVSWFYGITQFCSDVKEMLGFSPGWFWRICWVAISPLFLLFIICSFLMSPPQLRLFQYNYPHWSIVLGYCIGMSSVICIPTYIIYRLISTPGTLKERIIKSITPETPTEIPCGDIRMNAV", "UniProt P9WNX1, whole entry": "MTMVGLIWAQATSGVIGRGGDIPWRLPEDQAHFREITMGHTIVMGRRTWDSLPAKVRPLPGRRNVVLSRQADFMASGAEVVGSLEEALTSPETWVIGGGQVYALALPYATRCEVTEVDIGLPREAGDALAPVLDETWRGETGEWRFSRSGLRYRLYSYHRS", "UniProt P9WPP7, whole entry": "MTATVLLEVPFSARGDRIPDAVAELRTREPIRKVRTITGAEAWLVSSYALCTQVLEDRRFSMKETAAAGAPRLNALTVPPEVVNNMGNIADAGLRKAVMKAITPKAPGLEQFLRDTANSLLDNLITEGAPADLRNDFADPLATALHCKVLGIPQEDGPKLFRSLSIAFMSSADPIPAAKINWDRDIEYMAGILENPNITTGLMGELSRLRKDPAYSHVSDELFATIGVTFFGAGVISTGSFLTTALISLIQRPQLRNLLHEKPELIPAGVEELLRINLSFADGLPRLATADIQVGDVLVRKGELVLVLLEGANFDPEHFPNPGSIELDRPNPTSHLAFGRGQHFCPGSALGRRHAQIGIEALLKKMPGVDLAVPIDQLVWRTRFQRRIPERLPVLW", "UniProt Q86X55, whole entry": "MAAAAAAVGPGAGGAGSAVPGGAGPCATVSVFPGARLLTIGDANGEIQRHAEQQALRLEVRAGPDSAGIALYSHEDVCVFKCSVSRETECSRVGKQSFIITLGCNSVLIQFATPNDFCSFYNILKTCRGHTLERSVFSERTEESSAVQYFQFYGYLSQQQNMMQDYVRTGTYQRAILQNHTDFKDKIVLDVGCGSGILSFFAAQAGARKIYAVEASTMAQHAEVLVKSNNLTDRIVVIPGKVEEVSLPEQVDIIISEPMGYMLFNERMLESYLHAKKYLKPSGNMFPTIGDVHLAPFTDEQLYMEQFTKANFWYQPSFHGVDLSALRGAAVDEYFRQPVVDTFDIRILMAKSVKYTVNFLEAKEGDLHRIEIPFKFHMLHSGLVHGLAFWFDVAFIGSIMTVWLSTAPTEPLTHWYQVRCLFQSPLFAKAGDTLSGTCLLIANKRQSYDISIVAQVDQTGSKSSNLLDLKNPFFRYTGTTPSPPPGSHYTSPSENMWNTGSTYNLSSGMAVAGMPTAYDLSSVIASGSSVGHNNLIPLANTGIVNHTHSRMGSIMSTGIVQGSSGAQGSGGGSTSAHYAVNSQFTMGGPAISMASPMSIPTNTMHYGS", "UniProt P16469, whole entry": "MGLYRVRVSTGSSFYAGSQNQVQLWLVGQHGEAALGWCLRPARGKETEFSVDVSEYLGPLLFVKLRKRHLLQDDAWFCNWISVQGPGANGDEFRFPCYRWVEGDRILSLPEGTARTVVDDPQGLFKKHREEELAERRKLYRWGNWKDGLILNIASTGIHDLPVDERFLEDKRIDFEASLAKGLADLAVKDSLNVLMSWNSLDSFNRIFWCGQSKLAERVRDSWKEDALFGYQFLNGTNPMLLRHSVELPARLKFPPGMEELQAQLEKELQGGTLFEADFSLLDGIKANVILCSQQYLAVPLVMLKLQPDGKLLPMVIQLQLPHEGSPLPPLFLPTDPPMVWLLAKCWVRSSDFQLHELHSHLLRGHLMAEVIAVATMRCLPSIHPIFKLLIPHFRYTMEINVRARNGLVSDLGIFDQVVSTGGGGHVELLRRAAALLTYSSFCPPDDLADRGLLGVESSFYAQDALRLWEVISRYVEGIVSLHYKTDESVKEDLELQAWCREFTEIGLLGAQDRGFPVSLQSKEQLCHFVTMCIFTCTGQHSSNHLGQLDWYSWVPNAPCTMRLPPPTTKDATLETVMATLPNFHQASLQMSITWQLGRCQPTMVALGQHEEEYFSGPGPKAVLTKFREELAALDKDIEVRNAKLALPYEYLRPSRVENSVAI", "UniProt P33535, whole entry": "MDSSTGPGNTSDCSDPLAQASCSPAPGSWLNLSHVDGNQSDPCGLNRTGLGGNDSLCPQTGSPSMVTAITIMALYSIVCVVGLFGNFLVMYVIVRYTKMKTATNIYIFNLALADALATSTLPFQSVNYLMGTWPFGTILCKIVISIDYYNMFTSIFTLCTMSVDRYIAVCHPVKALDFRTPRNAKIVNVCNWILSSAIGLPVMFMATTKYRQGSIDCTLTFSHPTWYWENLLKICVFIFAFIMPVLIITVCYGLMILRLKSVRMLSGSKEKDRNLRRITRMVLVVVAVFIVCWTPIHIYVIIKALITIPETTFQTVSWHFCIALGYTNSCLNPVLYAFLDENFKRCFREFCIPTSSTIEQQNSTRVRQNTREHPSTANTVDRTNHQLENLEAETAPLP", "UniProt Q9UUB1, whole entry": "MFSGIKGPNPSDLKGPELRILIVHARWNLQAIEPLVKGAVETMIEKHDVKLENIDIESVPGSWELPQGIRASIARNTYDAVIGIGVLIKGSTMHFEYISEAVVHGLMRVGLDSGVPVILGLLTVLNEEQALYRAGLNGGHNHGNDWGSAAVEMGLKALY", "UniProt P33534, whole entry": "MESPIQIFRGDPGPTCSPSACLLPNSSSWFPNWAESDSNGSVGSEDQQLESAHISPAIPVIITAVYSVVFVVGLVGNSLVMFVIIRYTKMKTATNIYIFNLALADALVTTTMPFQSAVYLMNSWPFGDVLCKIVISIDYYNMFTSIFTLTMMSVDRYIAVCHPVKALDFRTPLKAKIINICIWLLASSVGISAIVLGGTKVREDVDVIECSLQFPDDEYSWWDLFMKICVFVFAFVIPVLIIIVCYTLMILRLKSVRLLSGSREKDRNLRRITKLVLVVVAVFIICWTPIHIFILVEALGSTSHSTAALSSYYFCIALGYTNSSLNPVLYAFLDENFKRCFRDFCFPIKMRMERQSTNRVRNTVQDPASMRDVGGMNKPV", "UniProt P25084, whole entry": "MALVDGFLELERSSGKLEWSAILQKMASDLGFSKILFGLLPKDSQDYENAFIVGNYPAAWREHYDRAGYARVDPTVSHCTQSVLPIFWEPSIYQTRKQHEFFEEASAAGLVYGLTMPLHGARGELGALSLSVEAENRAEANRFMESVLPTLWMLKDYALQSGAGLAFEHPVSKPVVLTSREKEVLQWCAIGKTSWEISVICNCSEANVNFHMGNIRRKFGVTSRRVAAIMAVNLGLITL", "UniProt P28335, whole entry, looked up": "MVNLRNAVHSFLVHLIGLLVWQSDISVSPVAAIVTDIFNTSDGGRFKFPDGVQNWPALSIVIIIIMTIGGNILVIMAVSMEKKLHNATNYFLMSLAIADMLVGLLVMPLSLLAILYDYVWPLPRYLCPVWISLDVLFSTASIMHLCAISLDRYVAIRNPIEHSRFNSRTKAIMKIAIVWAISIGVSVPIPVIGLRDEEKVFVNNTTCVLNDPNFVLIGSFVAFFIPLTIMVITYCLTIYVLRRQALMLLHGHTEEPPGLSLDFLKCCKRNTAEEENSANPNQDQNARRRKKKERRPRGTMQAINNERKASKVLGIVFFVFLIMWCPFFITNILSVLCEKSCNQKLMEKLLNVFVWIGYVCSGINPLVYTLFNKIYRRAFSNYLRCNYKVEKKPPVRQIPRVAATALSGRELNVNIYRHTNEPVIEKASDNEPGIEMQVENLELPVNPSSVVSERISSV", "UniProt P07813, whole entry": "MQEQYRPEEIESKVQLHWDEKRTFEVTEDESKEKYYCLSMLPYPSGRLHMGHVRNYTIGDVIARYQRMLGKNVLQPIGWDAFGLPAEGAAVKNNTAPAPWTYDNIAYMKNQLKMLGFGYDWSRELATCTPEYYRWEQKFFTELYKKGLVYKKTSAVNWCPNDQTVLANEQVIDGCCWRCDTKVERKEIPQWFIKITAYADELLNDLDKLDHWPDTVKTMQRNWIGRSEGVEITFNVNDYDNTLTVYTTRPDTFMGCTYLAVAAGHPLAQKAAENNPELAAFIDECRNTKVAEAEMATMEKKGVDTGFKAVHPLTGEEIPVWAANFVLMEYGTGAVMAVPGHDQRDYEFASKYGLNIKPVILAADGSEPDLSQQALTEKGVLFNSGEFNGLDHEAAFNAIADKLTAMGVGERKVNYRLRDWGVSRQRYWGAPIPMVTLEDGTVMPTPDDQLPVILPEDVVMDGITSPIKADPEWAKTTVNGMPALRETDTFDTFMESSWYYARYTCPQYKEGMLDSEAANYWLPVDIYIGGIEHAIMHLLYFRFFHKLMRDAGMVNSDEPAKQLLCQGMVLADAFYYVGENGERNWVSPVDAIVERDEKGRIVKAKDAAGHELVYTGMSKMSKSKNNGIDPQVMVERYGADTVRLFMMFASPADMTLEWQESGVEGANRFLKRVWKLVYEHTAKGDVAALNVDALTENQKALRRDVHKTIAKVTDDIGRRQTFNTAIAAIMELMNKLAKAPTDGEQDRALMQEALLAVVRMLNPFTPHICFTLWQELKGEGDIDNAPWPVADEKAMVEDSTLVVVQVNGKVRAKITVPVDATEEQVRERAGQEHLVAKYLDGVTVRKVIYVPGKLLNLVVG"}, "data": "Values quoted from earlier work that unrelated publications cite", "Slc6a4": "Sodium-dependent serotonin transporter (Slc6a4, Rattus norvegicus, UniProt P31652)", "note": "Compare with care: the assays were run in different laboratories. ± gives the spread as reported."}
{"Structure (SMILES)": "NC1=NC2(CCCCC2)N(c2ccc(OCc3cn(CCCCOc4ccc5ccc(=O)oc5c4)nn3)cc2)C(N)=N1", "target or system": "folA (Mycobacterium tuberculosis, UniProt P9WNX1)", "assay": "enzyme activity", "scale": "relative to: human over M. tuberculosis", "endpoint": "selectivity ratio", "value": 18}
{"Structure (SMILES)": "c1ccc(C(CCn2ccnc2)(c2ccccc2)c2ccccc2)cc1", "target or system": "cyp121 (Mycobacterium tuberculosis, UniProt P9WPP7)", "endpoint": "Kd", "value": "0.0088 ± 0.003 mM"}
{"Structure (SMILES)": "CSCCC(NC(=O)C(NC(=O)C(CO)NC(=O)C(Cc1ccccc1)NC(=O)C1CCCN1C(=O)C1CCCN1C(=O)C(CCCNC(=N)NCCCC1OC(n2cnc3c(N)ncnc32)C(O)C1O)NC(=O)C1CCCN1C(=O)C(C)NC(=O)C(C)NC(=O)C1CCCN1C(C)=O)C(C)O)C(=O)O (stereo not drawn)", "target or system": "CARM1 (Homo sapiens, UniProt Q86X55)", "scale": "relative to: CARM1 over PRMT1", "endpoint": "selectivity ratio", "value": "250 fold"}
{"Structure (SMILES)": "NCCNCCSc1ccccc1", "test system": "plasma", "conditions": "1 µg/mL, 24 h, room temperature", "endpoint": "short-term stability", "value": "95.9 ± 3.76 % remaining"}
{"Structure (SMILES)": "c1ccc2c(c1)ccc[n+]2CCCCCCCCCC[n+]1cccc2ccccc21", "target or system": "BJ fibroblasts", "assay": "cytotoxicity, MTT", "endpoint": "IC50", "value": "1.23 mM"}
{"Structure (SMILES)": "Ic1ccc(CSCn2ccnc2)cc1", "target or system": "ALOX15 (Sus scrofa, UniProt P16469)", "assay": "enzyme activity, inhibitor", "endpoint": "Ki", "value": "> 0.01 mM"}
{"Structure (SMILES)": "c1ccc(COC2(c3ccccc3)CC3CCC(C2)N3)cc1 (stereo not drawn)", "target or system": "Slc6a4", "scale": "relative to: Ki DAT over Ki SERT", "endpoint": "selectivity ratio", "value": 0.47}
{"Structure (SMILES)": "Cc1cc(O)cc(C)c1C[C@H](N)C(=O)N[C@@H]1CCNc2ccc(CC3Cc4ccccc4C3)cc21", "target or system": "Oprm1 (Rattus norvegicus, UniProt P33535)", "assay": "agonist", "conditions": "10 µM", "scale": "relative to: DAMGO", "endpoint": "maximal stimulation", "value": "86%"}
{"Structure (SMILES)": "Clc1ccc(COC2(c3ccccc3)CC3CCC(C2)N3)cc1 (stereo not drawn)", "target or system": "Slc6a4", "scale": "relative to: Ki DAT over Ki SERT", "endpoint": "selectivity ratio", "value": 3.6}
{"Structure (SMILES)": "CCC(=O)Nc1c(NC[C@H](O)[C@H](O)[C@H](O)CO)[nH]c(=O)[nH]c1=O", "target or system": "6,7-dimethyl-8-ribityllumazine synthase (rib4, Schizosaccharomyces pombe, UniProt Q9UUB1)", "assay": "enzyme activity, enzyme kinetics", "conditions": "pH 7.0, inhibition", "endpoint": "substrate dissociation constant (Ks)", "value": "1.9 ± 0.3 µM"}
{"Structure (SMILES)": "c1ccc2c[n+](CCCCCCCC[n+]3ccc4ccccc4c3)ccc2c1", "target or system": "BJ fibroblasts", "assay": "cytotoxicity, MTT", "endpoint": "IC50", "value": "1.01 mM"}
{"Structure (SMILES)": "N#Cc1cc(C(=O)N[C@@H]2CC[C@@]3(O)[C@H]4Cc5ccc(O)c6c5[C@@]3(CCN4CC3CC3)[C@H]2O6)ccn1", "target or system": "Oprk1 (Mus musculus, UniProt P33534)", "scale": "relative to: Ki µ over Ki κ", "endpoint": "selectivity ratio", "value": 9.62}
{"Structure (SMILES)": "O=C(Oc1c(Br)cc(Br)cc1CNC(=O)c1ccccc1[N+](=O)[O-])c1ccccc1Cl", "target or system": "lasR (Pseudomonas aeruginosa, UniProt P25084)", "assay": "agonist", "endpoint": "Emax", "value": "100%"}
{"Structure (SMILES)": "Nc1nc(Cl)nc2c1ncn2[C@H]1[C@H](O)[C@H](O)[C@]2(CO)C[C@H]12", "target or system": "HTR2C (Homo sapiens, UniProt P28335)", "conditions": "10 µM, added: [3H]mesulergine", "endpoint": "inhibition", "value": "8%"}
{"Structure (SMILES)": "NC[C@H]1OB(O)c2ccccc21", "target or system": "leuS (Escherichia coli, UniProt P07813)", "assay": "binding", "endpoint": "residence time", "value": "1 to 8 h"}
{"note": "Some of these lines once more:"}
{"Structure (SMILES)": "c1ccc2c[n+](CCCCCCCC[n+]3ccc4ccccc4c3)ccc2c1", "target or system": "BJ fibroblasts", "assay": "cytotoxicity, MTT", "endpoint": "IC50", "value": "1.01 mM"}
